{"data": "Experimental data pooled from the literature", "note": "Lines come from different studies, so protocols differ. ± marks the error that the study gave."}
{"Compound": "N=C(c1ccc([N+](=O)[O-])o1)N1CCC(NC(=O)c2cc(-c3ccc(F)cc3F)on2)(c2nc3ccccc3[nH]2)CC1", "target": "STING pathway", "test": "inhibitor, ELISA", "system": "mouse iBMDM", "conditions": "concentration not given, 24 h, added: diABZI 500 nM", "quantity": "IFNβ secretion", "value": "inhibited"}
{"Compound": "NCCCn1cc(COc2cc(C(=O)Nc3cc(OCCN)c4ccccc4n3)nc(C(=O)Nc3cc(OCCN)c4ccccc4n3)c2)nn1", "target": "Bcl2 G-quadruplex DNA", "test": "FRET melting", "conditions": "1 µM, pH 7.4, added: 60 mM potassium", "quantity": "ΔTm", "value": "2.5 ± 0.4 K"}
{"Compound": "Cc1c[nH]c2nccc(-c3ccc(C(=O)N[C@@H]4c5c(F)cc(C(F)F)cc5C[C@@H]4O)cn3)c12", "target": "ROCK1/2", "test": "MYPT1 phosphorylation, inhibitor, western blot", "quantity": "IC50", "value": "0.24 µM"}
{"Compound": "Nc1ncc(-c2cc(-c3cnn(CC(F)(F)F)c3)ncc2F)nc1C(=O)NC1CNCC(F)C1 (centres unmarked)", "target": "PIK3C2G", "test": "KINOMEscan", "conditions": "1 µM", "scale": "relative to: DMSO control", "quantity": "remaining binding", "value": "89%"}
{"Compound": "C=CC(=O)Nc1cccc(Cn2ncc3cnc(Nc4cnn(CCOC)c4)nc32)c1", "target": "HIPK3 human", "test": "binding, KINOMEscan", "conditions": "100 nM", "scale": "lower = stronger binding", "quantity": "percent of control", "value": "100%"}
{"Compound": "N=C(NCC[C@H](NC(=O)c1noc(-c2cc(F)ccc2F)n1)c1nc2ccccc2[nH]1)c1ccc([N+](=O)[O-])o1", "target": "STING pathway", "test": "inhibitor", "system": "human CD14+ monocytes", "conditions": "2.5 µM, added: diABZI", "quantity": "IFNβ secretion", "value": "inhibited"}
{"Compound": "CCN(CC)C(=O)CC(NC(=O)CCc1ccccc1)C(=O)NC(Cc1ccc(F)cc1)C(=O)NC(Cc1ccc(F)cc1F)C(=O)C1(C)CO1 (centres unmarked)", "target": "proteasome β5, Trypanosoma brucei", "test": "activity-based probe labelling, inhibitor", "system": "parasite lysate", "conditions": "1 µM, 1 h preincubation, added: Me4BodipyFL-Ahx3Leu3VS", "quantity": "probe labelling", "value": "inhibited"}
{"Compound": "COc1c(Br)c(O)c2c(c1Br)OC(c1ccccc1)CC2=O (centres unmarked)", "target": "bovine serum albumin", "test": "methylglyoxal-mediated glycation, fluorescence", "conditions": "concentration not given", "quantity": "inhibition", "value": "37.2 ± 7.62%"}
{"Compound": "Cc1sc2ncn(CC(=O)N3CCCC3)c(=O)c2c1-c1cccc(Br)c1", "target": "NMDA receptor, mouse", "test": "single-channel current, outside-out patch", "system": "cortical neurons", "conditions": "50 µM, added: Ca2+ 0.5 mM", "quantity": "mean open time", "value": "4.2 ± 0.7 ms"}
{"Compound": "COCC(=O)N1CCc2cc(-c3csc(NC(=O)c4cc(OC)cc(OC)c4)n3)ccc21", "target": "rat GABAA receptor central", "conditions": "10 µM, added: muscimol", "quantity": "inhibition", "value": "8%"}
{"Compound": "Cc1cn(CC(=O)N(CC(=O)N[C@H]2CCC[C@@H]2N(CC(=O)N[C@H]2COC[C@@H]2N(CC(=O)N[C@H]2COC[C@@H]2N(CC(=O)N[C@H]2COC[C@@H]2N(CC(=O)NCCOCCOCC(N)=O)C(=O)Cn2cnc3c(N)ncnc32)C(=O)Cn2cc(C)c(=O)[nH]c2=O)C(=O)Cn2cnc3c(N)ncnc32)C(=O)Cn2cnc3c(=O)[nH]c(N)nc32)[C@H]2CCC[C@@H]2NC(=O)CN(C(=O)Cn2cnc3c(=O)[nH]c(N)nc32)[C@H]2CCC[C@@H]2NC(=O)CN(C(=O)Cn2cc(C)c(=O)[nH]c2=O)[C@H]2COC[C@@H]2NC(=O)CN(C(=O)Cn2cnc3c(N)ncnc32)[C@H]2COC[C@@H]2NC(=O)CN(C(=O)Cn2cnc3c(=O)[nH]c(N)nc32)[C@H]2COC[C@@H]2N)c(=O)[nH]c1=O", "target": "mismatched DNA TG", "test": "duplex formation, UV melting", "scale": "relative to: complementary DNA", "quantity": "ΔTm", "value": "-20.3 °C"}
{"Compound": "c1ccc(-c2n[nH]cc2-c2ccnc3ccccc23)nc1", "target": "BCK1 (Candida albicans)", "test": "kinase binding, MIB/MS competition", "system": "Candida albicans lysate", "conditions": "10 µM", "scale": "relative to: DMSO", "quantity": "log2 fold change", "value": -0.07}
{"Compound": "Cc1[nH]nc2c1N=C(c1ccccc1Cl)c1cnc(N3CCOCC3)cc1N2", "target": "KATP channel, hamster", "test": "radioligand binding", "conditions": "10 µM", "quantity": "inhibition", "value": "4%"}
{"Compound": "CN(Cc1cc(C2CC2)on1)C(=O)c1cccc(-c2ccc3c(c2)CCO3)c1", "target": "acetyl-CoA synthetase 1 (Aspergillus fumigatus)", "test": "enzyme activity, inhibitor, coupled pyrophosphate", "conditions": "5 µM", "scale": "higher is more activity", "quantity": "reaction rate", "value": "0.00123 a.u."}
{"Compound": "Cc1c(C)c2cccnc2c2ncccc12.O=[N+]([O-])[O-].O=c1c(C=NN=C([S-])Nc2ccccc2)coc2ccccc12.[Cu+2]", "target": "supercoiled pUC19 DNA", "test": "oxidative DNA cleavage", "conditions": "concentration not given, superoxide dismutase 1 U, added: ascorbic acid", "quantity": "nicked circular DNA", "value": "100%"}
{"Compound": "NCCOc1cc(NC(=O)c2cc(Cl)cc(C(=O)Nc3cc(OCCN)c4ccccc4n3)n2)nc2ccccc12", "target": "Bcl2 G-quadruplex DNA", "test": "FRET melting", "conditions": "1 µM, pH 7.4, added: 60 mM potassium", "quantity": "ΔTm", "value": "23.1 ± 0.9 K"}
{"Compound": "COc1ccc(C2CC(=O)c3c(O)c(Br)c(O)c(Br)c3O2)cc1O (centres unmarked)", "target": "bovine serum albumin", "test": "methylglyoxal-mediated glycation, fluorescence", "conditions": "concentration not given", "quantity": "inhibition", "value": "63.3 ± 2.8%"}
{"Compound": "C=CC(=O)N1[C@@H](c2ccc3c(c2)OCO3)c2[nH]c3ccccc3c2C[C@H]1C(=O)N1CCN(C)CC1", "target": "human cyclin E1 wild type-3xFLAG:CDK2", "test": "co-IP with TMT proteomics, refers to: SDHB", "conditions": "concentration not given, P21912", "scale": "relative to: wild type DMSO", "quantity": "relative co-enrichment", "value": "108%"}
{"Compound": "COc1c(Br)c(O)c(Br)c2c1C(=O)CC(c1ccccc1)O2 (centres unmarked)", "target": "bovine serum albumin", "test": "methylglyoxal-mediated glycation, fluorescence", "conditions": "concentration not given", "quantity": "inhibition", "value": "45.6 ± 4.28%"}
{"Compound": "CN(C)CCOc1cc(NC(=O)c2cccc(C(=O)Nc3cc(OCCN(C)C)c4ccccc4n3)n2)nc2ccccc12", "target": "Bcl2 G-quadruplex DNA", "test": "FRET melting", "conditions": "1 µM, pH 7.4, added: 60 mM potassium", "quantity": "ΔTm", "value": "9.9 ± 1.1 K"}
{"note": "For quick reference, copied from above:"}
{"Compound": "CN(C)CCOc1cc(NC(=O)c2cccc(C(=O)Nc3cc(OCCN(C)C)c4ccccc4n3)n2)nc2ccccc12", "target": "Bcl2 G-quadruplex DNA", "test": "FRET melting", "conditions": "1 µM, pH 7.4, added: 60 mM potassium", "quantity": "ΔTm", "value": "9.9 ± 1.1 K"}
